Assay results pooled from the literature.
Numbered parts are unrelated; each lists some results of a single study.

Sample 1
Target: Ras GTPase-activating protein-binding protein 1, C-terminal RGG region (G3BP1, Homo sapiens, UniProt Q13283)
Sequence of UniProt Q13283 (whole entry, looked up): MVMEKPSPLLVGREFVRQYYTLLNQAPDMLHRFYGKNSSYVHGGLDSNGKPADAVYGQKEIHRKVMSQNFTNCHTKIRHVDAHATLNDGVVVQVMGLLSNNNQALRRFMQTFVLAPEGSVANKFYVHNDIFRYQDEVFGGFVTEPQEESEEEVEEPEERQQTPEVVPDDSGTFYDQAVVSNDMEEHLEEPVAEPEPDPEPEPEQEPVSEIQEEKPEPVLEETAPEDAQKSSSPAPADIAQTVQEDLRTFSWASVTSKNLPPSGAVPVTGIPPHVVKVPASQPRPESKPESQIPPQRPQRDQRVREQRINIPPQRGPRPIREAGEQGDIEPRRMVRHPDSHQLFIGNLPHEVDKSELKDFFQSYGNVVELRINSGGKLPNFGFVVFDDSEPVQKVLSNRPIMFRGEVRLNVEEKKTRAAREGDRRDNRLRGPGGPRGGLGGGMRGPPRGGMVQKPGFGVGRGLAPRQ
Method: RNA Bind-n-Seq
Form: RNA
Matrix: in vitro
Tested at: 1 µM
Setting: whole 134-nt RNA, ends assumed
Together with: 150 mM KCl
Reference: input library
Direction: higher = stronger binding
Shared flanks, not repeated: GGGAGUUCUACAGUCCGACGAUC … UGGAAUUCUCGGGUGUCAAGG
For `CUGUGCUACACAUCGUAUGUACCGAAUCGGGCCCCCCCGGGCCCCCCCGGCCCCCCCGGGGAAAGUAUUAUGUUACGCCGUUCGGAUCUG`, the log2 enrichment was -2.22.
`CCUGUGCUACACAUCGUAUGUACCGAAUCGGUUUUUUUGGGUUUUUUUGGGUUUUUUUGGGAAAGUAUUAUGUUACGCCGUUCGGAUCUG` gave a log2 enrichment of -1.56.
With `UAACUUUAGAGGAAGAUCUGAUGGAUAUGGCAGUGGACGUGGAUUUGGGGAUGGCUAUAAUGGGUAUGGAGGAGGACCUGGAGGUGGCAA` the log2 enrichment was -1.2.
`CUGUGCUACACAUCGUAUGUACCGAAUCGGGAAAAAAAGGGAAAAAAAGGAAAAAAAGGGGAAAGUAUUAUGUUACGCCGUUCGGAUCUG` has a log2 enrichment of -1.52.
With `CUCAAGUCCUGUGCUACACAUCGUAUGUACCGAAUCGGAGGAAAGGAAAAAGGAAAGUAUUAUGUUACGCCGUUCGGAUCUGCACUUCCA` the log2 enrichment was -1.37.

Sample 2
Target: Histone acetyltransferase KAT6A, winged helix 1, GST fusion (KAT6A, Homo sapiens, UniProt Q92794, residues 1-85)
Method: protein binding microarray
Form: double-stranded DNA, one strand shown
Matrix: in vitro
Tested at: not given
Setting: 8-mer, flanks averaged, mean of 2 arrays, mostly near background
Reference: not given
Direction: higher = stronger binding
Residues (chain): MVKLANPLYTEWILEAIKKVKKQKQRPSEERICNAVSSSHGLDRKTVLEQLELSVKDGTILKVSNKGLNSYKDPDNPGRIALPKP
`GCGTTGTA` gave an E-score of 0.102.
The E-score of `CCTAGTGC` is reported as 0.0327.
`AAATGTTA` has an E-score of -0.107.
For `TCTTCGCA`, the E-score was -0.105.
For `ACGGCCAC`, the E-score was 0.295.
With `CAGACGGG` the E-score was 0.084.
`AGCTATAC` gave an E-score of -0.0156.

Sample 3
Target: Myc proto-oncogene protein, bHLH-zipper, MAX partner unstated (MYC, Homo sapiens, UniProt P01106, residues 368-449)
Sequence of UniProt P01106 (368-449, looked up): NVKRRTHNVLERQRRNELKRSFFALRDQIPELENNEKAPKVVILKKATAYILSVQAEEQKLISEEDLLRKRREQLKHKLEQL
Method: protein-binding microarray
Form: double-stranded DNA, one strand shown
Matrix: in vitro
Tested at: not given
Setting: k-mer, scored over probes, only values ≥0.25
Direction: higher = stronger binding
For `AGCATGTG`, the E-score was 0.466.
The E-score of `CACATGCC` is reported as 0.445.
`ACATGTAT` gave an E-score of 0.346.
`GCGCACGA` gave an E-score of 0.37.
`ACCCGCCC` gave an E-score of 0.364.
With `GAACACAC` the E-score was 0.262.

Mixed results
`PhoQ, residues 284 288 289 292 302 303 NLMGRA` gave a fold induction of 14.1 (PhoP, residues 12 14 15 18 19 NQGLL (Escherichia coli, UniProt P23836); Sort-seq, refers to: YFP reporter; E. coli; PhoQ-PhoP variant library, together with: 10 µM Mg2+; reference: high Mg2+ state, higher = stronger signaling).

For quick reference, copied from above (sample 2):
For `TCTTCGCA`, the E-score was -0.105.
For `ACGGCCAC`, the E-score was 0.295.
